Measurements pooled from the literature.
Numbers after ± are the reported error.

SMILES = CC1(C)CCC(CN2CCN(c3ccc(C(=O)NS(=O)(=O)c4ccc(NCC5CCOCC5)c([N+](=O)[O-])c4)c(Oc4cnc5[nH]ccc5c4)c3)CC2)=C(c2ccc(Cl)cc2)C1; assay = cell kill, PI exclusion flow cytometry; system = normal CD3+ T lymphocytes, human, lymph node; conditions = 24 h; measurement = EC50; value = 63 nM
SMILES = C[C@@H](NC(=O)N1C(=O)[C@H](Cc2ccnc(N)c2)[C@H]1C(=O)O)C1CCCCC1; assay = aPTT prolongation, Emax PK/PD model; system = human, plasma; scale = reference: baseline; measurement = EC50; value = 8.94 µg/mL
SMILES = CC(C)(O)c1cn(-c2ccc(-c3cccc(S(C)(=O)=O)c3)cc2)c(C(C)(C)c2ccccc2Cl)n1; assay = gene induction, agonist, item: ABCG1; system = Macaca fascicularis, whole blood; measurement = EC50; value = 140 nM
SMILES = CC1(C)CCC(c2ccc(Cl)cc2)=C(CN2CCN(c3ccc(C(=O)NS(=O)(=O)c4ccc(N[C@H](CCN5CCOCC5)CSc5ccccc5)c(S(=O)(=O)C(F)(F)F)c4)cc3)CC2)C1; assay = cell kill, PI exclusion flow cytometry; system = CD3+ nodal neoplastic T cells, human; conditions = 24 h; measurement = EC50; value = 21 nM
SMILES = CC[C@@H]1CN(C(=O)NCC(F)(F)F)C[C@@H]1c1cnc2cnc3[nH]ccc3n12; assay = endoscopic response; system = human, moderate-to-severe Crohn's disease; conditions = week 12/16, 50% response, average concentration; measurement = EC50; value = 0.0262 µg/mL
SMILES = CC(C)C[C@@H](NC(=O)[C@H](C)NC(=O)CNC(=O)[C@@H](NC=O)C(C)C)C(=O)N[C@@H](C)C(=O)N[C@@H](C(=O)N[C@H](C(=O)N[C@@H](C(=O)N[C@@H](Cc1c[nH]c2ccccc12)C(=O)N[C@H](CC(C)C)C(=O)N[C@@H](Cc1ccc2cc[nH]c2c1)C(=O)N[C@H](CC(C)C)C(=O)N[C@@H](Cc1c[nH]c2ccccc12)C(=O)N[C@H](CC(C)C)C(=O)N[C@@H](Cc1c[nH]c2ccccc12)C(=O)NCCO)C(C)C)C(C)C)C(C)C; assay = H+/Na+ transport, pyranine pH-gradient; system = EYPC/cholesterol LUVs 2:1; measurement = EC50; value = 34.7 ± 9.9 nM
SMILES = Cc1ccc(C(=O)Nc2ccnc(S(N)(=O)=O)c2)c(N2CCCC(F)(F)CC2)n1; assay = capsaicin-induced flare; system = rhesus macaque, plasma; conditions = with: capsaicin; measurement = EC50; value = 146 nM
SMILES = CC(C)C[C@@H](NC(=O)[C@H](C)NC(=O)CNC(=O)[C@@H](NC=O)C(C)C)C(=O)N[C@@H](C)C(=O)N[C@@H](C(=O)N[C@H](C(=O)N[C@@H](C(=O)N[C@@H](Cc1c[nH]c2ccccc12)C(=O)N[C@H](CC(C)C)C(=O)N[C@@H](Cc1cccc2[nH]ccc12)C(=O)N[C@H](CC(C)C)C(=O)N[C@@H](Cc1c[nH]c2ccccc12)C(=O)N[C@H](CC(C)C)C(=O)N[C@@H](Cc1c[nH]c2ccccc12)C(=O)NCCO)C(C)C)C(C)C)C(C)C; assay = H+/Na+ transport, pyranine pH-gradient; system = EYPC/EYPG LUVs 19:1; measurement = EC50; value = 6.01 ± 2.74 nM
SMILES = Cn1cncc1-c1c(F)cncc1NC(=O)c1c(N)nn2cc(F)cnc12; assay = inhibition of erythrocyte progenitor production, model, semi-mechanistic PopPK-PD, item: reticulocyte count; system = human, plasma; measurement = EC50; value = 0.736 µg/mL
SMILES = CC(C)C[C@@H](NC(=O)[C@H](C)NC(=O)CNC(=O)[C@@H](NC=O)C(C)C)C(=O)N[C@@H](C)C(=O)N[C@@H](C(=O)N[C@H](C(=O)N[C@@H](C(=O)N[C@@H](Cc1c[nH]c2ccccc12)C(=O)N[C@H](CC(C)C)C(=O)N[C@@H](Cc1cccc2cc[nH]c12)C(=O)N[C@H](CC(C)C)C(=O)N[C@@H](Cc1c[nH]c2ccccc12)C(=O)N[C@H](CC(C)C)C(=O)N[C@@H](Cc1c[nH]c2ccccc12)C(=O)NCCO)C(C)C)C(C)C)C(C)C; assay = H+/Na+ transport, pyranine pH-gradient; system = EYPC/EYPG LUVs 19:1; measurement = EC50; value = 3.51 ± 1.6 nM
SMILES = Cn1cc(-c2ccc(-c3cncc(Cl)c3N3CCC4(CCNC4=O)CC3)cc2)cn1; target or system = COLO 205; assay = gene expression, microarray, item: DDIT4 mRNA; conditions = concentration not given, 2 h; scale = reference: untreated cells; measurement = log2 fold change; value = 2.22

Repeated from above:
SMILES = Cn1cncc1-c1c(F)cncc1NC(=O)c1c(N)nn2cc(F)cnc12; assay = inhibition of erythrocyte progenitor production, model, semi-mechanistic PopPK-PD, item: reticulocyte count; system = human, plasma; measurement = EC50; value = 0.736 µg/mL
